Experimental data gathered from unrelated publications.
A part holds a random share of what one study measured.

Set 1 — method: RNA Bind-n-Seq; form: RNA; medium: in vitro; tested at: 365 nM; baseline: no-protein control; direction: higher = stronger binding; measurement: RBNS enrichment (R)
Target: RNA binding protein fox-1 homolog 2, RRM domain, GST-SBP tag (RBFOX2, Homo sapiens, UniProt O43251-10, residues 100-194)
Notes: natural RNA segment, single round, ends assumed
Constant ends, left off below: GGGAGUUCUACAGUCCGACGAUC … UGGAAUUCUCGGGUGCCAA
Target sequence (chain): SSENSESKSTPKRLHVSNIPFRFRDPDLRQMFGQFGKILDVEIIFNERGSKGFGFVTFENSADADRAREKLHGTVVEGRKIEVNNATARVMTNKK
Sequence = UGCUUGCACCUCAGGUAAAAAUCUGUAAAUAUCUAAGUUGUAAACCUGCUUGUUCAAAUACUGUGUGUAUUCCUUUUCUCUAAUGCAGCUCAUCACUUGGAGCAGUUUCU; value = 0.489
Sequence = GUGUCCACAAAUCUGAAUAUUAGGGGCAUGAAAUUAGGCUUACCAUCUGAUUUGUAAUUACAAUUUUGGAAUUCUCUGUUUUAGUUGCUGAGGCCUGAGUUUUCUGGCUC; value = 2.85
Sequence = UCCAUGUUGAAUGGUACAAAAUAUUUCUGUGAAACUAACAGGAAGAUAUUUUCAGAUAACUAGGAUAACUUGUUGCUUUGUUACCCAGCCUAAUUGAAGAGUGGCAGAGG; value = 0.325
Sequence = GCAGAGAGUGCCCCAUGCCUUCUUUAAGAAGUCCCUCAUUAAGCCGCAGGAACAAUGGAAAACUAUUUAAGGGAACAUUGCAGAAAUAUUUGAUGACUGUUUCUUGUGGA; value = 0.624
Sequence = GUGUCCCGGGACUCUUUCCGUUCAUUGUUUGCUUUUUUGGCAACUAGGAGGUUGGCACUAAGACCCAGGACAAUGUUACUUCUCUGUGAUGUGUGGUGACUUCCCUCUGC; value = 0.69
Sequence = AAGGAAAGAUGGUAAUAGUGAGAGAUUCGGGGGGCACCCCCUCCCCAUUGGUUUCUGGCCCUUUCAGGCUACAACCCCCCAGCCUUGCAGGUGUCAGAACAGUCUCACAA; value = 0.333
Sequence = UGGUUAUUUGGAUUGCUUGCUUCCCUUUUUCCACCUGGGACAUUGUAAUCAUAAAAUAACAGUAAAUUCCAAACCUCAAAAACUAUUAUGGCCUGAGCACAGCUGAAAUC; value = 0.626
Sequence = CCCGGUAGACGGGCACCCCGAGAUGUACCAACCUUUUCAUGUAUUCUGCCAAAAGCAUUGUUUUCCAGGGCCCUUGACCAACAUCGGCUUCCCCAGUCCAGGGCUCCCCU; value = 0.684
Sequence = UGUAAUUGAGAGCUCAUUUCAAAAGCAGAAAAAGACAACAAAUAUUAAAGCAAGGAAAAGUGUAACUGAAACACUGCACUUUACUGUUUUAUACUUUUGUACAUAUGAGA; value = 0.255
Sequence = GUUGGUGAUGUCAUGAUGCACAGAAGUCCCAUGUGGAGUGUUUUUCCCACACUGACAACUUGGCUUCCUUUCUGUGUGUUCAGUCUGUUGUCUGAACUAACACUCCCGCG; value = 0.372
Sequence = CAUUUCUUGAACAGUCUGUGAAUAUGCCUGUGUGGACGCUGUAUCCUGCUGCUGUCCCUCUCCUGGUCUCUCACACUGCAUGGCCUCCUAUCACUGUGAAUUGUGGCCUG; value = 2.07
Sequence = GCAAAGCCUAGUGAAGGCUUCUCUCUGUGGGAUGGGAUGGUGGAGGGCCACAUGGGAGGCUCACCCCCUUCUCCAUCCACAUGGGAGCCGGGUCUGCCUCUUCUGGGAGG; value = 0.296

Set 2 — method: aptamer microarray, sandwich; form: DNA with 2'F-ANA; medium: in vitro; tested at: 200 nM; added: Cy3 exosite-II aptamer, 400 nM; direction: higher = stronger binding; measurement: mean fluorescence intensity; sequence: GGTTGGTGTGGTTGG
Target: Prothrombin, mature alpha-thrombin (F2, Homo sapiens, UniProt P00734)
Notes: whole 15-mer aptamer, many near background
Modification = 2'F-ANA at 2 4 11 13 14 15; value = 103 a.u.
Modification = 2'F-ANA at 4 6 7 9 10 11 13 14; value = 79.5 a.u.
Modification = 2'F-ANA at 3 4 5 6 7 8 9 10 11 15; value = 50.2 a.u.
Modification = 2'F-ANA at 2 6 8 11 12 13; value = 525 a.u.
Modification = 2'F-ANA at 1 2 11 12 14 15; value = 89.1 a.u.
Modification = 2'F-ANA at 1 6 7 8 9 11 12 13 15; value = 222 a.u.
Modification = 2'F-ANA at 1 3 5 7 9 10 11 14; value = 43.3 a.u.
Modification = 2'F-ANA at 1 5 7 9 11 13 15; value = 49.5 a.u.
Modification = 2'F-ANA at 1 2 3 5 6 7 9 11 13 14 15; value = 51.5 a.u.
Modification = 2'F-ANA at 1 2 3 4 5 7 13 15; value = 75.6 a.u.
Modification = 2'F-ANA at 1 2 4 5 6 7 8 9 10; value = 48.1 a.u.
Modification = 2'F-ANA at 3 4 7 9 10 12 13 14; value = 227 a.u.
Modification = 2'F-ANA at 3 7 8 9 12; value = 1570 a.u.
Modification = 2'F-ANA at 1 2 3 8 9 11 12 13 14; value = 102 a.u.
Modification = 2'F-ANA at 2 3 4 7 8 9 12 13 14 15; value = 259 a.u.
Modification = 2'F-ANA at 4 5 6 13 14; value = 44.7 a.u.
Modification = 2'F-ANA at 1 3 7 9 11 15; value = 243 a.u.
Modification = 2'F-ANA at 1 2 3 5 7 10 11 13 14; value = 80.5 a.u.
Modification = 2'F-ANA at 2 3 4 6 8 9 12 13 15; value = 524 a.u.
Modification = 2'F-ANA at 2 3 4 5 9 10 11 12 15; value = 56.8 a.u.
Modification = 2'F-ANA at 2 4 5 7 9 15; value = 66.9 a.u.
Modification = 2'F-ANA at 3 6 8 9 10 11 12 14 15; value = 336 a.u.
Modification = 2'F-ANA at 1 2 4 5 9 10 14 15; value = 47 a.u.
Modification = 2'F-ANA at 1 2 4 5 8 10 13; value = 44.8 a.u.
Modification = 2'F-ANA at 3 6 12 13 14 15; value = 609 a.u.

Set 3 — method: protein binding microarray; form: double-stranded DNA, one strand shown; medium: in vitro; tested at: not given; baseline: not given; direction: higher = stronger binding; measurement: E-score
Target: Histone acetyltransferase KAT6A, winged helix 2, GST fusion (KAT6A, Homo sapiens, UniProt Q92794, residues 85-181)
Notes: 8-mer, flanks averaged, mean of 2 arrays, mostly near background
Construct (chain): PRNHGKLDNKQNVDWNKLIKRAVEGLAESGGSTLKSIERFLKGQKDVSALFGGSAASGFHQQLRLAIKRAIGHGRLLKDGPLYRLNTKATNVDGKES
Sequence = CCCACCAC; value = 0.059
Sequence = ACACGCCA; value = 0.132
Sequence = GATCGATC; value = -0.148
Sequence = ATATGGGG; value = 0.00571
Sequence = GTCCATCA; value = -0.0191
Sequence = CTCATAAG; value = -0.0348
Sequence = ACTTACCT; value = -0.236
Sequence = CTGCAGCA; value = 0.015
Sequence = GGCTTAAC; value = -0.0482
Sequence = AACTGATG; value = -0.179
Sequence = CTAGGCCC; value = -0.123
Sequence = CCGCAGGA; value = 0.145
Sequence = GGTGGACA; value = 0.0261
Sequence = AGCAGGAA; value = 0.0574
Sequence = AAGTCAGC; value = 0.0991
Sequence = AGACTACT; value = -0.128
Sequence = CAACCATA; value = 0.03
Sequence = AGCCTGAA; value = 0.00783
Sequence = AAAGCGAC; value = 0.0715
Sequence = AGGCGGGG; value = 0.232
Sequence = ATGCCAGC; value = 0.0643
Sequence = AAATCGGC; value = 0.147
Sequence = AGCGTGAA; value = -0.0917
Sequence = CGGCAGTC; value = 0.133
Sequence = CACGAGCG; value = -0.0651

Set 4 — method: RNA Bind-n-Seq; form: RNA; medium: in vitro; tested at: not given; baseline: input RNA pool; direction: higher = stronger binding; measurement: bound/input enrichment
Target: RING finger protein unkempt homolog, zinc fingers 1-6, GST-SBP tag (UNK, Homo sapiens, UniProt Q9C0B0, residues 30-357)
UniProt Q9C0B0, sequence (30-357, looked up): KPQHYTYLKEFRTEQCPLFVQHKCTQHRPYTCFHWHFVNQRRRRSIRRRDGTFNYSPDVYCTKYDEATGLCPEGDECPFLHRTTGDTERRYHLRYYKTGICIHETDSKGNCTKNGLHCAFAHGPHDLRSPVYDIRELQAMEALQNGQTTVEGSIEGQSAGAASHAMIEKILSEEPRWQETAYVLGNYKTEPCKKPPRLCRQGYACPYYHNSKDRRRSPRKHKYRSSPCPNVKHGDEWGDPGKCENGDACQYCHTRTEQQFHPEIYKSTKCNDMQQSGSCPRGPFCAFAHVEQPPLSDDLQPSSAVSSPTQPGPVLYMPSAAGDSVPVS
Notes: RNA with constant flanks, human and mouse sites, ends assumed
Constant ends, left off below: GGGAGUUCUACAGUCCGACGAUC … CAACAGAGGAUUGAGCAUCA
Sequence = UCCUGUGCUGUGGGAAGGGGCAGGACGGCUGGUGGGGGGGGCUGAUGUGGCACCUUGCAAAUAGAAUAUCUAAGUCCACAAUCUUUGUAAGAAAAGUAUGUUUAUGUUUCAAUCUGAAUC; value = 3.74 ratio
Sequence = GUGUAUAACAGAGUUGUUUGUUUCCUCUUUGAUUUUAAACAGAGAAAAUAAAAGGAGUAACUGCUCCUUUUUUCUUCCUUUUUUCAUUUCAAAGUUUCUACCAGUGUAUCAGUGACGGAC; value = 0.328 ratio
Sequence = UAGAUAAUUCUUUUUAUUUUUUAUUUUUCCUUUCCCUCAAUCCUUUUUUAUUUUUAAAAAUAGUUCUUUUGUAAUGUGGUGUUCAAAAUGAAAAUUGAAUACUGGCACUCCAUCUCUUAG; value = 188 ratio
Sequence = GAAAUGACACUGGCCCAGCUUUUUCUACAGUCAGAGGCUGCUUAUUGUUGUGUCAGUGAAUUAGGAGAACUUGGAAAGGUUCAGUUUCGUGACUUAAAUCCAGAUGUGAAUGUUUUCCAA; value = 0.156 ratio
Sequence = GGCCCCAGCCCCGGCCGCUGUGGUGACUCCGCCGCGCCUCGCCGUCGCCCCCGUGCCGCCCGCCGCCCCCGCCGCCCCCGCCGCCGGGGACAUGUCUAACCCCGGAGGCCGGAGGAACGG; value = 1.32 ratio
Sequence = AAGUCUUGCUAGAAUUUUUUCUAAUCUUUAGUAGAUUUGAUUAAAUAAUGAUUCACAGAAUUUAGUAACAGAAUCAAACUAAGCCAUGUAUGAGGGUAAUCGAGAUGAGGAUAUUAACUC; value = 0.789 ratio
Sequence = AUGGAGGAGAACCAGCUAAAGAGCGAAAUGCAAGACGCCAAGGACCAGAACGAGCUGUUAGAAUUCAGAGUGCUAGAACUCGAAGUAAGAGACUCUAUCUGUUGUAAGCUCUCAAACGGA; value = 0.157 ratio
Sequence = UAGGCCUGUGUGUGUGUGUGAGUGUGUGUGUAUAUGGGUGUGGGUGUGUUUGUGUGUGGUGGUUGUGGGGGGGGUGUUGGAGGUUCUAUUUCAUUUAAAAAUGUAUUCAUUUCCCUGGCC; value = 7.96 ratio
Sequence = GUAUUAAGUUCCUCUCCUGCUGAUAAAUUGGAUUCUCGAUUUAGGAAGGGAACUUUUGGUACUAGAGAUGCUGAAACAGAUGGACCUGAGAAAGGAGAUCAAAAAGGCAAGGCUUCUCCA; value = 0.244 ratio
Sequence = UCAAGAGAUGAUGGCUUUGUUGUCAGAAUAUUUGCCACAAGCACUGAACCUGUUCUACAGCAAGAAUUGCAACUUAAACUGGCUAGAAAAUGCUUACAUGCCUGUGGUAUCUCACUAUUC; value = 0.163 ratio
Sequence = CAUCUUUCUUGAUCAACAUCUUUUCUUGCCUCUGUCCCCUUCUCUCAUCUCUUAGCUCCCCUCCAACCUGGGGGGCAGUGGUGUGGAGAAGCCACAGGCCUGAGAUUUCAUCUGCUCUCC; value = 0.247 ratio

Set 5 — method: universal PBM; form: double-stranded DNA, one strand shown; medium: in vitro; tested at: 600 nM; direction: higher = stronger binding; measurement: E-score
Target: Sal-like protein 4, full length isoform A (SALL4, Homo sapiens, UniProt Q9UJQ4, residues 1-1053)
UniProt Q9UJQ4, sequence (whole entry, looked up): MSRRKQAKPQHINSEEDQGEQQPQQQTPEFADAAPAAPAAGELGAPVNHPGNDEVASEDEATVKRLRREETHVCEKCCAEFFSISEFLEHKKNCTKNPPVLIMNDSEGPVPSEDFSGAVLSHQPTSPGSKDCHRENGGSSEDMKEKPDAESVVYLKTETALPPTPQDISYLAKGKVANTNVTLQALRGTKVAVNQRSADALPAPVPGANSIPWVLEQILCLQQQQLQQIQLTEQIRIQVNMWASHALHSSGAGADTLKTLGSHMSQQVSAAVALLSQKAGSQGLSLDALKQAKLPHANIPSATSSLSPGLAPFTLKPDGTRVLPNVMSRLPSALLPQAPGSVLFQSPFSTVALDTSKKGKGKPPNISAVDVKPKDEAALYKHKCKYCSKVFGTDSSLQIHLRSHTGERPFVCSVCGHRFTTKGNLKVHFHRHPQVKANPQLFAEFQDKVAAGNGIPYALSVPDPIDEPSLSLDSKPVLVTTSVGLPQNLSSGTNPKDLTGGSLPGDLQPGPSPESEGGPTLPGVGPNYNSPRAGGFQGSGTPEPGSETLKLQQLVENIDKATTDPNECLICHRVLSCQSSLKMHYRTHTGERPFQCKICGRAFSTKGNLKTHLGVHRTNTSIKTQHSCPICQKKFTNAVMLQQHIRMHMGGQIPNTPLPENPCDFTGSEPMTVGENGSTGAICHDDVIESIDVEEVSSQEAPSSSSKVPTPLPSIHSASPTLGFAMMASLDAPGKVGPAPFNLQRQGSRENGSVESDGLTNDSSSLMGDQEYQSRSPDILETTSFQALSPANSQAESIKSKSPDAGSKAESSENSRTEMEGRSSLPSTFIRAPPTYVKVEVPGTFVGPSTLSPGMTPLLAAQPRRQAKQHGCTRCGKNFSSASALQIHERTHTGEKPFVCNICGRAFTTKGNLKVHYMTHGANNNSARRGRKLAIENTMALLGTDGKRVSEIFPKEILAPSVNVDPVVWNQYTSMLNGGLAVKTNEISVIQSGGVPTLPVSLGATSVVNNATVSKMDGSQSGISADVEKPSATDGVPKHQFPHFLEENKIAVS
Notes: 8-mer, flanks averaged, mean of replicates
Sequence = ATAGGGCG; value = -0.0491
Sequence = CTTGCGCA; value = 0.0453
Sequence = ATAAAGGC; value = 0.151
Sequence = CTACGGAA; value = 0.0431
Sequence = TCACTCGA; value = -0.00054
Sequence = AAGAACGC; value = 0.0166
Sequence = CGACACTA; value = -0.18
Sequence = AGCGCGAT; value = -0.0993
Sequence = CCTTCCCC; value = -0.283
Sequence = GGAGTCCC; value = -0.407
Sequence = GGCAAGAA; value = 0.0694
Sequence = AGGGGGGA; value = -0.22
Sequence = GTCGGGCA; value = -0.244
Sequence = ACTAAATA; value = 0.367
Sequence = ATTGGCGC; value = -0.0912
Sequence = CACTTTAC; value = 0.163
Sequence = ATTTCATA; value = 0.368
Sequence = CTTGTTGA; value = 0.0663
Sequence = ACGGATAA; value = 0.129
Sequence = GCGCAACC; value = -0.312
Sequence = CTCGTCTA; value = -0.0515

Excerpt of the above (set 5):
Sequence = GTCGGGCA; value = -0.244
Sequence = ACTAAATA; value = 0.367
Sequence = ATTGGCGC; value = -0.0912
Sequence = CACTTTAC; value = 0.163
Sequence = ATTTCATA; value = 0.368
Sequence = CTTGTTGA; value = 0.0663
Sequence = ACGGATAA; value = 0.129
